Measurements collected from several papers.
Each numbered part is a random draw from the data of one study; scales do not carry over between parts.

Sample 1
Target: RNA binding protein fox-1 homolog 2, RRM domain, GST-SBP tag (RBFOX2, Homo sapiens, UniProt O43251-10, residues 100-194)
Method: RNA Bind-n-Seq
Molecule type: RNA
Matrix: in vitro
Concentration: 365 nM
Setting: natural RNA segment, single round, ends assumed
Reference: no-protein control
Direction: higher = stronger binding
Constant ends, left off below: GGGAGUUCUACAGUCCGACGAUC … UGGAAUUCUCGGGUGCCAA
Target sequence (chain): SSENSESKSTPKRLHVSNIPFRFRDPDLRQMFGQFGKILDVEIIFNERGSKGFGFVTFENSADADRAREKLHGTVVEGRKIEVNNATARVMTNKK
Sequence | RBNS enrichment (R)
AAGUUUACCAGCUUCAAACUAUGUAAAGGACUUCACCAAGUUAGGGCCUCCUGGGUUUAUUGCAGAUUAAAGCCAUCUCAGUGAAGAUAUGCGUGCACGCACAGACAGAC | 1.12
CAGUUUCUAUGUAUGAUACGAGUUGCUUACACGAUGCAUGGCUAACUUGUUAAUUUAGUUUUCUCCUUAGAGACUUUGAGACCCUUAAGAGACAAGAUUGAGAAAGAGCC | 4.06
CUUGCUGUGUACAUCAAGAAAAUUCAGUUGAAUUCUGAGAUUAGCAUGGUUAUUAGCACUUUAUGCUGGGAGCCAGCAGAGUGGUGGACUUCCGUGCUGACUAAGCUGUG | 0.277
AAAAUCUUAUUCCAGUUUGCAAUUAAGCCCCAUUUCCAUUUCCACACAGCAACUGAUCGGCUUUCUGUCCUUCAGGUUUGCCAUUUCUGAACAUUUCCUAUAAAUGGAAU | 1.08
GCCCAAGUCUAGCUCUCCAGCAGAGCCACCCUCGGCUGGGGGCACCCACCUCACAGGCCACCUCAGUGGCGCCUGCCCACUGCGGGCUGGCUGCUCCUACCUACCUCGCC | 0.202
AUUUUUCUAUUUUCCCCACAAAUUAUUUCAAAAAAAAUCUGUAUUUUCUGGGAUAUGUCAUUGGCAAGAGGAAGAACUGGUGUUUUGAAAGCAGUAUGGAUUCUUUAAAU | 0.354
GAGAAUUCUAGAUAGAUAGCUAAUCUGCUUUUAAUCAUGACAUUUUAAUCUACCUCUGUCUCUUUAACCACGCUGUCUCUGGACUGAGUGUCAGGAGGGAAGAGGGGAGU | 0.264
AUGGCUUUACUUUGGCUGUCUUUUCUUCUGUCAUGUGCGAAGGGAGUUUGUAACUUUUGGAACCGGAGAGCCCUGUUUCUUUGGCUGGGCGGUUAUGGCAGCUGAAGGCA | 1.3
AAAGGAUUUUACCAAAGCAUCAAUACAACCAGCCCAACCAUCGGUCCACACCUGGGCAUUUGGUGAGAGUCAAAGCUGACCAUGGAUCCCUGGGGCCAACGGCAACAGCA | 1.04
ACUCGGCUGGGCUGCUUGGGGAGACUCUUCCGUGCGUUCUUCCUCUGGAUAGAACCACCACCUCCUGGGCGUCACUGACAAGCUCCAUCUUAACCUCCAAAGCCACAGAA | 0.179
AUUGUUUAUUUCAAGAAAUAGCUUUGUUACAGUAAAAUAUUUGUCAUUUAAAACCCAGCUGUUUAGCAAGGAGUGUUGGCUCACACCUACAAUCCCAGCAUUUGGGAAGC | 0.763
ACCUUUUGUAGAAAAAAAUGGCUUAUGCCACGUAAAGGUGAAUUUUUAGAAACCACCUUCUAGGCGUUUUUGGAACCCUUACUGAAAUCCCUCCCCUUGUUACAGAUGGC | 0.311

Sample 2
Target: Ras GTPase-activating protein-binding protein 1, full length (G3BP1, Homo sapiens, UniProt Q13283)
UniProt Q13283, sequence (whole entry, looked up): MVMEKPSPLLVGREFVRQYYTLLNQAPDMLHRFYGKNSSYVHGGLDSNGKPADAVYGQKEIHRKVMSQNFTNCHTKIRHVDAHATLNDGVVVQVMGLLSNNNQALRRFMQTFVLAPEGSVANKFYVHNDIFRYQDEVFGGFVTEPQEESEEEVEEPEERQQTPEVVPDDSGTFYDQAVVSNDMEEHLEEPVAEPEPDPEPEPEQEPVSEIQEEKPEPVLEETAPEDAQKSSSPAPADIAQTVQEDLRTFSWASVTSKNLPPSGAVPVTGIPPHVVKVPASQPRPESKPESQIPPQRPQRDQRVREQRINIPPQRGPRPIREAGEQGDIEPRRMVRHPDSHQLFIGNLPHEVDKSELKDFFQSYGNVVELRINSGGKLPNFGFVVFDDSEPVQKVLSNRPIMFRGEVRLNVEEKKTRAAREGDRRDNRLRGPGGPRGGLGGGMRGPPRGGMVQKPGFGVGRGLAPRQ
Method: RNA Bind-n-Seq
Molecule type: RNA
Matrix: in vitro
Concentration: 200 nM
Setting: whole 134-nt RNA, ends assumed
Together with: 150 mM KCl
Reference: input library
Direction: higher = stronger binding
Constant ends, left off below: GGGAGUUCUACAGUCCGACGAUC … UGGAAUUCUCGGGUGUCAAGG
Sequence | log2 enrichment
UGGGAGGUGGAUUUUGUUUAUUUUUUUAGCUCAUUUCCAGGGGUGGGAAUUUUUUUUUAAUAUGUGUCAUGAAUAAAGUUGUUUGUGAAA | 0.7
UACUCUUUGAUUUAUCAAAUGUGUUCAGUUGGAGAAUCGUCCUCAGGAAAGGCUUCAAGGAGCCUUGCACAGCAUAUUCCUGGCCCUGGU | -1.12
UCAAGUCCUGUGCUACACAUCGUAUGUACCGAAUCGGAAAGGAAAAAAAGGAGGAAAGUAUUAUGUUACGCCGUUCGGAUCUGCACUUCC | -0.778
AGUCCUGUGCUACACAUCGUAUGUACCGAAUCGGGUUUUUGGGAGGGAAAAAAAGGGAAAGUAUUAUGUUACGCCGUUCGGAUCUGCACU | -0.308
AAGUCCUGUGCUACACAUCGUAUGUACCGAAUCGGAAAAAAAGGAAAAAGGUUUGGAAAGUAUUAUGUUACGCCGUUCGGAUCUGCACUU | -1.78
UAACUUUAGAGGAGGAUCUGAUGGAUAUGGCAGUGGACGUGGAUUUGGAGAUGGCUAUAAUGGGUAUGGAGGAGGACCUGGAGGUGGCAA | 0.403
UCAUUAGAAGAUCUAAUUGAGAGAGAGGUAACUGGUAUCCUUUUCCUACCAUAAAAACUGAAAGCAGUAUUUAUUGUGAAAUUCUAAUAC | -0.648
GUCCUGUGCUACACAUCGUAUGUACCGAAUCGGGGUUUUUGGUUUUUGGGUUUUUGGGAAAGUAUUAUGUUACGCCGUUCGGAUCUGCAC | -0.768
AGUCCUGUGCUACACAUCGUAUGUACCGAAUCAAAUUUUUAAACCCCCAAACCCAAAAAAGUAUUAUGUUACGCCGUUCGGAUCUGCACU | -0.418
UUCCUCAAGUCCUGUGCUACACAUCGUAUGUACCGAAUCGGGCGGCGGCGGAAAGUAUUAUGUUACGCCGUUCGGAUCUGCACUUCCAGC | -0.199
AAGUCCUGUGCUACACAUCGUAUGUACCGAAUCGGGGAAAAGGAAAAGGAAAAGGGAAAGUAUUAUGUUACGCCGUUCGGAUCUGCACUU | -0.562
ACCAUGCAGGUGGGCAUCUUUGGGAAGUGGGGCAAGGGGGGGAUAGGGAGGGAGGUAACACUUUGGGAACAGGUGGUCCCAGGUCGUUUC | 1.28
CACAGACAACUCGCACCCACACAGACACAGAGGGAAGGGGUUGGGAUGGGGACAGGGUGCACAGCAGGGCGGGGUAGGACCCCAGCCCCU | 1.98
UCAGAGGAAUAUCCUUGACUUCCCCCAGCAUGUUUCCCCCUCCAAGGACAUCCGGACAGCCAGCACAGAGGCCGACAAGAAGCUCUCUGA | -0.0806

Sample 3
Target: Histone acetyltransferase KAT6A, winged helix 1, GST fusion (KAT6A, Homo sapiens, UniProt Q92794, residues 1-85)
Method: protein binding microarray
Molecule type: double-stranded DNA, one strand shown
Matrix: in vitro
Concentration: not given
Setting: 8-mer, flanks averaged, mean of 2 arrays, mostly near background
Reference: not given
Direction: higher = stronger binding
Residues (chain): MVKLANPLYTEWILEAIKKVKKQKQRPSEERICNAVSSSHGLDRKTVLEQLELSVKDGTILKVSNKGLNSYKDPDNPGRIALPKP
Sequence | E-score
AGGTGCTC | -0.124
GAATGACC | 0.0051
ATAAGTAA | -0.202
AATAATTA | -0.0549
ATCTTGTC | -0.138
ACCGTTGG | -0.0772
CACGTAAC | 0.00841
CGACCTGC | 0.17
CGATGATC | 0.00172
AATTAGAA | -0.135
ATTGCCTC | -0.151
ACGGTTAC | 0.289
GACCACCA | -0.0623
CGCAGAGC | 0.222
CGACAACA | -0.00862
ACTCAGAA | -0.156
ACCACTAC | -0.116

Sample 4
Target: RING finger protein unkempt homolog, zinc fingers 1-6, GST-SBP tag (UNK, Homo sapiens, UniProt Q9C0B0, residues 30-357)
UniProt Q9C0B0, sequence (30-357, looked up): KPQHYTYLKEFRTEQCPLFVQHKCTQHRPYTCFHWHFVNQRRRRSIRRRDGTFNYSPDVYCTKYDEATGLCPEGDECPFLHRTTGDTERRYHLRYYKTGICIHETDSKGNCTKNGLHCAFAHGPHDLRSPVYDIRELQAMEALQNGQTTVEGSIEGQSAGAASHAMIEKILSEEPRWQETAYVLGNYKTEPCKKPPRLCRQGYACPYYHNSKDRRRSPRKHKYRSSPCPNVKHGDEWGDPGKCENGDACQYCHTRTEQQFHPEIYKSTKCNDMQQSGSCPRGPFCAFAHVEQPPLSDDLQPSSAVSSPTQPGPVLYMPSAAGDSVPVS
Method: RNA Bind-n-Seq
Molecule type: RNA
Matrix: in vitro
Concentration: not given
Setting: RNA with constant flanks, human and mouse sites, ends assumed
Reference: input RNA pool
Direction: higher = stronger binding
Constant ends, left off below: GGGAGUUCUACAGUCCGACGAUC … CAACAGAGGAUUGAGCAUCA
Sequence | bound/input enrichment [ratio]
UAGCAGAGGUAAGAAUAUGUAUUCAUAUAAUCUGCCUACUUUUGAGUUCUCAUAUUAACAUUUAGAUAACAUAUGAAGUAUGGCCCCCUUGGAUCCUUGUUUUUAAGUUACUUUCGAUGU | 2.99
AUGAGUUAAAUAUAUUUAUAUGUACAUACAUAUAUAUAUCCCUUUACAUAUAUAUGUAUGUGGGUGUGAGUGUGUAUGUGUGGGUGUGUGUUACAUACACAGAAUCAGGCACUUACCUGC | 0.574
CAGUCCCCGUGUCCCAGUGCAGGACGAUGUGAACAAAAACUCAAAGCGGACCCUCUAUUGUAGUUCUUGAUUCUCGAAAUGUGCUAUUAUUGUUUGUCUUUUUUUUUUUUUUUUUAAAGA | 1.17
GCUGCUACAUUCAGUUUUUUAAUAUCCUAUGGUCAUGAUGCAAUCUUGUGAAUGGCCUUGUUAGUUACAAUGUGGUUUGGAUGGGAAGUGUCCCACCUGUAGACUCACGUCUUUGAACAU | 0.411
CAUACACAUUCUUUCCUUGGAGAAGAUCUUGUCCAUCAGGAAGCAUCGAUCAAUCUACCUCAUUUUUAUCUGCGUAAAAGAGUGUGUCUGCACACAAGUCCAUUUCAUUGUGUCCAGCCA | 0.179
GAAAAGGAAAAUCUGCAAAGAACUUUCCUGCUUACAACCUCAAGUAAAGAAGAUACUUGUUUUUUAAAGGAGCAACUUCGUAAAGCAGAGGAACAGGUUCAGGCAACUCGGCAAGAAGUU | 0.11
UUGUUGCUGCUCUGAGCAUCUGGAGGAACAGAAAACUAAGUUCAUGUCAUCCUGCUGUAAUGGGCAGAGCAUAUUUUUUUUGUAUUUAAAAGAUAAACUUCAAUAUGGAAUGCUAGAAAC | 0.339
GUCCCAGUCUCAGACGCGGCUAAAGCGCUGGGGUCUGAGAAGGAAAGCGACCACGGUGCUUAGGUGUCUUGAAGGAUCAGAGGUACCUAAGGUUCAACCUGUCGAGGAGGCAGUGGAUAU | 0.179
CAAACUUAUCAAGAAAUAGUUACCAGUCAUUCCGCAGCAUCCUGAGAACAGUUAAAAACACAUUUCAUAGUAAUGCCCUUCCAUUUUGGUAAUACUAAGCUGAACAUUUAAAAAUCUUGG | 0.468
AGGACAGUGCAGAAUUAAACCGUGUUGAAGACCAGUGGAAAUUGUAUAAUUUAACUUGGAUUUAGGCAGGAAGUGAAAUAUGGGAGGAGUAAAGAAAACUGAAGAAUUUAAAGUUUUCCU | 0.644
AGAAUUAUGGUAUAUGGUACAUGGUUGAAGUGCCAUUGUUUCAGUUAACAUUCCAGUAACCUUGUGGAUUAGGUUGGAGACAUGCUUUAUAGGUGACCCACUUACUGAGUGUUUAAAUAU | 0.43

A few entries again (sample 3):
Sequence | E-score
ACTCAGAA | -0.156
CGATGATC | 0.00172
ATCTTGTC | -0.138
CACGTAAC | 0.00841
GACCACCA | -0.0623
